Measured values gathered from unrelated publications.
Parts stem from different laboratories: compare values within a part only. Substitutions count along the parent as printed.

Set 1 — method: protein-binding microarray; molecule type: double-stranded DNA, one strand shown; matrix: in vitro; tested at: 940 nM top; setting: 60-bp whole probe; together with: salmon DNA 0.4 mg/ml; reference: random background probes; direction: higher = stronger binding; all sequences stand within: GCCTAGCAC … GTCTTGATTCGCTTGACGCTGCTG
Target: Interferon regulatory factor 5, full length, phosphomimetic (IRF5, Homo sapiens, UniProt Q13568-2, residues 1-514, S451D/S453D/S456D/S462D)
For `TTAGATATCAGTGTCGATTAGTGCTAG`, “fitted relative affinity” read 0.256 z-score.
For `ATAGGACTGGGGTTTCGGTTAGTGCTA`, “fitted relative affinity” read 5.63 z-score.
For `TTAGATTTCAAACTGGATTAGTGCTAG`, “fitted relative affinity” read -0.456 z-score.
Under “fitted relative affinity”, `TTAGGTCTGGGACTGGGTTAGTGCTAG` is recorded as -0.594 z-score.
Under “fitted relative affinity”, `TTAGGTTTCCTTATCCCTTAGTGCTAG` is recorded as 2.19 z-score.
`TAAGGACTGGGGTATCGGTTAGTGCTA`: “fitted relative affinity” 2.51 z-score.

Set 2 — method: RNA Bind-n-Seq; molecule type: RNA; matrix: in vitro; tested at: 200 nM; setting: whole 134-nt RNA, ends assumed; together with: 150 mM LiCl; reference: input library; direction: higher = stronger binding; each molecule: 7-deaza-guanosine replaces G
Target: Ras GTPase-activating protein-binding protein 1, full length (G3BP1, Homo sapiens, UniProt Q13283)
Chain of UniProt Q13283 (whole entry, looked up): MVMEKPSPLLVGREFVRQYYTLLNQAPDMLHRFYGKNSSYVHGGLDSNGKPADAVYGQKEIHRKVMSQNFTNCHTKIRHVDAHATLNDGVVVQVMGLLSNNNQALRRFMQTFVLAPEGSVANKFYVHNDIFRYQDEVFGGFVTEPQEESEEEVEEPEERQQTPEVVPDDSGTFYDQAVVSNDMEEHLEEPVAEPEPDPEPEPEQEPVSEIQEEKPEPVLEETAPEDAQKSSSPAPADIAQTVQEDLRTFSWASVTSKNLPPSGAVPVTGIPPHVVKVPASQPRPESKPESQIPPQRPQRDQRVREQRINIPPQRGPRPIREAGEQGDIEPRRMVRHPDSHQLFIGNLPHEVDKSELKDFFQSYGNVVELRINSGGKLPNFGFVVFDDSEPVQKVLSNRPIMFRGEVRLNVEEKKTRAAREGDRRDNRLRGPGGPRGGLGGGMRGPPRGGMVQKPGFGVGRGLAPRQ
For `GGGAGUUCUACAGUCCGACGAUCGAAAUUGAACCAGCAGCGAUGAAAGCAGCAGCUGCUGCCCCUGCCUCAGAGGAUGAGGACGAUGAGGAUGACGAAGAUGAUGAGGAUGACUGGAAUUCUCGGGUGUCAAGG`, the log2 enrichment was -1.29.
With `GGGAGUUCUACAGUCCGACGAUCUGGGAGGUGGAUUUUGUUUAUUUUUUUAGCUCAUUUCUAGGGGUGGGAAUUUUUUUUUAAUAUGUGUCAUGAAUAAAGUUGUUUUUGAAAUGGAAUUCUCGGGUGUCAAGG` the log2 enrichment was 0.377.
For `GGGAGUUCUACAGUCCGACGAUCCUGUGCUACACAUCGUAUGUACCGAAUCGGGGCCCCCCCGGGGCCCCCCCGGCCCCCCCGGGAAAGUAUUAUGUUACGCCGUUCGGAUCUUGGAAUUCUCGGGUGUCAAGG`, the log2 enrichment was -0.0351.
`GGGAGUUCUACAGUCCGACGAUCGCAGGAAGUAAAAACAAAUGGAAAUGCUUCGGAUACUGGCAGGGGUGGGGGUUGCUAAGGAAAGGGUGGGAUGGGAGUGGGUAAAGAGUUUGGAAUUCUCGGGUGUCAAGG` has a log2 enrichment of -0.0352.

Set 3 — target: CCNF, cyclin fold, Cln2 fusion (human); method: yeast growth competition, sequencing; matrix: yeast; setting: strong parent motif; reference: not given; direction: higher = stronger binding
Parent: CDC6 docking peptide (human); TLKGRRLVFDNQL
`D10R`: “normalised enrichment score” 7.16.
Under “normalised enrichment score”, `L2N` is recorded as 7.4.
For `L13Y`, “normalised enrichment score” read 9.41.

Mixed results
`PhoQ, residues 284 288 289 292 302 303 ALSMDL` gave a fold induction of 1.54 (PhoP, residues 12 14 15 18 19 SQCLL (Escherichia coli, UniProt P23836); Sort-seq, item: YFP reporter; E. coli; PhoQ-PhoP variant library, together with: 10 µM Mg2+; reference: high Mg2+ state, higher = stronger signaling).

A few entries again (set 1):
Under “fitted relative affinity”, `TTAGGTTTCCTTATCCCTTAGTGCTAG` is recorded as 2.19 z-score.
`TAAGGACTGGGGTATCGGTTAGTGCTA`: “fitted relative affinity” 2.51 z-score.
